Measurements collected from several papers.
Protocols differ between the studies behind these lines. Values joined by “and” are separate records of one study, mostly repeats; a detail may differ.
Target: Dual specificity protein kinase CLK1 (CLK1, Homo sapiens, UniProt P49759)

`Cc1ccc(-c2c(/C=C(\C#N)C(=O)NC(C)C)n(CCCO)c3ncnc(N)c23)cc1` has a remaining binding of 79% (cell-free assay, competition with immobilised ligand; 1 µM).
For `CCn1cc(C(=O)O)c(=O)c2c(N)c(F)c(NC3CCCCC3)cc21`, the inhibition was 9.3% (kinase activity; 0.1 µM, together with: ATP at Km).
For `COc1c(Cl)cccc1Nc1c(-c2ccncc2C#C[C@@]2(C)CCCN2C(=O)/C=C/CN(C)C)[nH]c2c1C(=O)NCC2`, the remaining binding was 100% (binding, competition with immobilised ligand; 3 µM).
`Cc1cccc(O[C@H]2CCC[C@@H](C(C)CNCc3ccncc3)C2)c1` (relative stereo) has an inhibition of -8% (enzyme activity, inhibitor; 1 µM).
For `Nc1ncc2c(n1)-c1c([nH]c3ccc(C4=CCOCC4)cc13)CCC2`, the remaining binding was 74% (binding, competition with immobilised ligand; 1 µM).
`CN1CC[C@@H](COc2cnc(C#N)cc2-c2ccn3nc(NC(=O)C4CC4)cc3c2)C1` gave an inhibition of 9% (enzyme activity, inhibitor; 1 µM).
With `C=CC(=O)N1CCc2ccc(-n3c(=O)ccc4cnc5ccc(-c6cnn(C)c6)cc5c43)cc21` the remaining binding was 96% (KINOMEscan; 1 µM; baseline: DMSO control).
`CN1CCN(Cc2ccc(-c3ccc(CO[C@H]4CCC[C@@H]4NC(=O)c4cc(-c5cnn(C)c5)cnc4N)cc3)cc2)CC1` has an inhibition of 7% (enzyme activity, inhibitor; 0.1 µM).
For `Cc1cnc2nc1Nc1cccc(c1)COC/C=C/COCc1cc(ccc1OCCN1CCOCC1)N2`, the remaining binding was 91% (binding; 0.1 µM).
The remaining binding of `COc1cc(Nc2nc(C)cc(-c3cnn4nc(OC)ccc34)n2)cc(C(F)(F)F)c1` is reported as 100% (binding, competition with immobilised ligand; 1 µM).
Under “log2 LFQ intensity”, `N[C@H]1CC[C@H](Nc2nccc(-c3cccnc3Oc3ccc(NC(=O)NC4CC4)c4ccccc34)n2)CC1` is recorded as 21.4 and 21.6 and 21.5 (kinobead competition pulldown; HEK293/HCT116 lysate mixture; 10 µM, 1 h, 4 °C; lower = stronger competition).
The inhibition of `NC(=O)C[C@H]1CCc2sc3ncnc(O[C@H]4CC[C@H](N5CCOCC5)CC4)c3c21` is reported as 90% (enzyme activity, inhibitor; 10 µM).
`C=CC(=O)Nc1cccc(-c2cnc3[nH]cc(C(=O)NC(C)(C)C)c3n2)c1` gave an inhibition of 9% and 13% (kinase activity; 0.1 µM).
`COc1cc(-n2cc3cc(F)cc(C(N)=O)c3n2)cc(Cl)c1C1CC(O)(CCO)Cc2ccccc21` (stereo not shown) has an inhibition of 0.52% (enzyme activity, inhibitor; 10 µM).
The remaining binding of `CNC(=O)C1CCN(c2cc(C)c(F)cc2NC(=O)c2ccc(-c3cc(O)ccc3C)c(C)c2)CC1` is reported as 91% (binding, competition with immobilised ligand; 1 µM).
`CNC(=O)C[C@H](Cc1ccc(C#N)cc1)NC(=O)c1cc(-c2ccc(CN[C@H](C)c3ccc(C)cc3)o2)ccc1Cl` — result for “activity vs control”: 106% (enzyme activity, inhibitor; 1 µM).

A few entries again:
`Cc1cccc(O[C@H]2CCC[C@@H](C(C)CNCc3ccncc3)C2)c1` (relative stereo) has an inhibition of -8% (enzyme activity, inhibitor; 1 µM).
